Experimental data of several laboratories.

For CN[C@@H]1[C@H](O)[C@H](NC)[C@H]2O[C@]3(O)[C@H](O[C@@H]2[C@H]1O)O[C@H](C)C[C@H]3NC(=O)Cc1cc(Cl)ccn1, the MIC was 1.6 to 3.1 µg/mL (Mycobacterium marinum; microbial growth; ATCC927).
With Cc1ccc(CNC(=O)C(=O)c2c(C)nc3ccc(C)cn23)cc1 the MIC was greater than 128 µM (Mycobacterium marinum; microbial growth; 5 days).
For CN[C@@H]1[C@H](O)[C@H](NC)[C@H]2O[C@]3(O)[C@H](O[C@@H]2[C@H]1O)O[C@H](C)C[C@H]3NC(=O)Cc1ccc(Cl)cn1, the MIC was 1.6 to 3.1 µg/mL (Mycobacterium marinum; microbial growth; ATCC927).
Cc1ccc(-c2nc3ccc(C)cn3c2CC(=O)NCc2ccc(N(C)C)cc2)cc1 has an MIC of greater than 50 µM (Mycobacterium marinum; microbial growth; 5 days).
The MIC of CN[C@@H]1[C@H](O)[C@H](NC)[C@H]2O[C@]3(O)[C@H](O[C@@H]2[C@H]1O)O[C@H](C)C[C@H]3NC(=O)Cc1ccccc1 is reported as greater than 200 µg/mL (Proteus mirabilis; microbial growth, broth dilution; ATCC25933).
For Nc1ccccc1C(=O)OCC#CCOC(=O)c1ccccc1N, the MIC was greater than 128 µg/mL (Saccharomyces cerevisiae; microbial growth, broth dilution; S288C).
The MIC of CN[C@@H]1[C@H](O)[C@H](NC)[C@H]2O[C@]3(O)[C@H](O[C@@H]2[C@H]1O)O[C@H](C)C[C@H]3NC(=O)Cc1cscn1 is reported as 3.1 µg/mL (Mycobacterium marinum; microbial growth; ATCC927).
For CCOc1cc(C=NNC(=S)Nc2cccc(Cl)c2)ccc1OC(=O)CN1C(=O)CSC1=O.NNC(=O)c1ccncc1, the MIC was 0.007 µg/mL (Mycobacterium tuberculosis; growth in combination; H37Rv; added: reference drug at 1/2 MIC).
With Cc1ccc2nc(C)c(CC(=O)NCc3ccc(N(C)C)cc3)n2c1 the MIC was greater than 50 µM (Mycobacterium marinum; microbial growth; 5 days).
With NNC(=O)c1ccncc1.O=C(CN1C(=O)CSC1=O)Oc1ccc(C=NNC(=O)c2ccncc2)cc1 the MIC was 0.0156 µg/mL (Mycobacterium tuberculosis; growth in combination; H37Rv; added: reference drug at 1/2 MIC).
For CN[C@@H]1[C@H](O)[C@H](NC)[C@H]2O[C@]3(O)[C@H](O[C@@H]2[C@H]1O)O[C@H](C)C[C@H]3NC(=O)Cc1ccc(F)cn1, the MIC was 1.6 to 3.1 µg/mL (Mycobacterium marinum; microbial growth; ATCC927).
With O=C(CN1C(=O)CSC1=O)Oc1ccc(/C=N/NC(=O)c2ccccn2)cc1Br the MIC was 4.19 µM (Mycobacterium tuberculosis; Alamar blue; 192).
The MIC of CC[C@H](C)[C@H](NC(=O)[C@H](CCCCN)NC(=O)[C@@H](NC(=O)[C@@H](NC(=O)[C@H](CC(C)C)NC(=O)[C@H](CCCNC(=N)N)NC(=O)[C@@H](NC(=O)[C@H](CC(C)C)NC(=O)[C@H](CCCNC(=N)N)NC(=O)CNC(=O)[C@H](Cc1ccccc1)NC(=O)[C@@H](N)CCCNC(=N)N)[C@@H](C)CC)[C@@H](C)CC)C(C)C)C(=O)N[C@@H](C)C(=O)N[C@@H](CCCNC(=N)N)C(=O)N[C@@H](CCCNC(=N)N)C(=O)N[C@@H](C)C(=O)N[C@@H](Cc1c[nH]cn1)C(=O)N[C@@H](CCCNC(=N)N)C(=O)N[C@@H](C)C(=O)N[C@@H](CCCNC(=N)N)C(=O)N[C@@H](CO)C(=O)N[C@@H](C)C(=O)N[C@H](C(=O)N[C@@H](CCCCN)C(=O)N[C@@H](C)C(=O)N[C@@H](C)C(=O)N[C@@H](CO)C(=O)N[C@@H](CC(N)=O)C(=O)N[C@H](C(=O)N[C@@H](C)C(=O)N[C@@H](C)C(=O)N[C@@H](CC(C)C)C(=O)N[C@@H](C)C(=O)N[C@@H](Cc1c[nH]cn1)C(=O)NCC(=O)N[C@@H](C)C(=O)O)C(C)C)C(C)C is reported as no more than 0.064 µM (Cryptococcus neoformans; resazurin broth microdilution; 36 h, 35 °C).
CCC(CO)NCCNC(CC)CO.CCOc1cc(C=NNC(=O)c2ccccn2)ccc1OC(=O)CN1C(=O)CSC1=O gave an MIC of 0.5 µg/mL (Mycobacterium tuberculosis; growth in combination; 192; added: reference drug at 1/2 MIC).
CC[C@H](C)[C@H](NC(=O)CNC(=O)[C@H](CC(=O)O)NC(=O)[C@H](CCCNC(=N)N)NC(=O)[C@@H](NC(=O)[C@H](Cc1c[nH]cn1)NC(=O)[C@H](CCC(N)=O)NC(=O)CNC(=O)[C@@H](NC(=O)[C@H](CCCNC(=N)N)NC(=O)[C@H](CCC(=O)O)NC(=O)[C@@H](NC(=O)[C@H](CCCCN)NC(=O)[C@H](CCCCN)NC(=O)[C@H](Cc1ccccc1)NC(=O)[C@@H](NC(=O)[C@H](CCCCN)NC(=O)[C@H](Cc1c[nH]c2ccccc12)NC(=O)[C@@H](N)CCCCN)[C@@H](C)CC)[C@@H](C)CC)C(C)C)C(C)C)C(=O)N[C@H](C(=O)N[C@@H](CCCCN)C(=O)N[C@@H](C)C(=O)NCC(=O)N[C@@H](CO)C(=O)N[C@@H](C)C(=O)N[C@H](C(=O)N[C@@H](CCC(N)=O)C(=O)N[C@H](C(=O)N[C@H](C(=O)NCC(=O)N[C@@H](CCC(N)=O)C(=O)N[C@@H](C)C(=O)N[C@@H](C)C(=O)N[C@@H](C)C(=O)N[C@H](C(=O)N[C@@H](C)C(=O)N[C@@H](CCCCN)C(N)=O)[C@@H](C)CC)C(C)C)C(C)C)C(C)C)[C@@H](C)CC has an MIC of no more than 0.062 µM (Cryptococcus neoformans; resazurin broth microdilution; 36 h, 35 °C).
CCC(CO)NCCNC(CC)CO.O=C(CN1C(=O)CSC1=O)Oc1ccc(C=NNC(=O)c2ccncc2)cc1Cl has an MIC of 0.5 µg/mL (Mycobacterium tuberculosis; growth in combination; 192; added: reference drug at 1/2 MIC).
The MIC of Cc1ccc(CNC(=O)Cc2c(C)nc3ccc(C)cn23)cc1 is reported as greater than 50 µM (Mycobacterium marinum; microbial growth; 5 days).

Repeated from above:
CC[C@H](C)[C@H](NC(=O)CNC(=O)[C@H](CC(=O)O)NC(=O)[C@H](CCCNC(=N)N)NC(=O)[C@@H](NC(=O)[C@H](Cc1c[nH]cn1)NC(=O)[C@H](CCC(N)=O)NC(=O)CNC(=O)[C@@H](NC(=O)[C@H](CCCNC(=N)N)NC(=O)[C@H](CCC(=O)O)NC(=O)[C@@H](NC(=O)[C@H](CCCCN)NC(=O)[C@H](CCCCN)NC(=O)[C@H](Cc1ccccc1)NC(=O)[C@@H](NC(=O)[C@H](CCCCN)NC(=O)[C@H](Cc1c[nH]c2ccccc12)NC(=O)[C@@H](N)CCCCN)[C@@H](C)CC)[C@@H](C)CC)C(C)C)C(C)C)C(=O)N[C@H](C(=O)N[C@@H](CCCCN)C(=O)N[C@@H](C)C(=O)NCC(=O)N[C@@H](CO)C(=O)N[C@@H](C)C(=O)N[C@H](C(=O)N[C@@H](CCC(N)=O)C(=O)N[C@H](C(=O)N[C@H](C(=O)NCC(=O)N[C@@H](CCC(N)=O)C(=O)N[C@@H](C)C(=O)N[C@@H](C)C(=O)N[C@@H](C)C(=O)N[C@H](C(=O)N[C@@H](C)C(=O)N[C@@H](CCCCN)C(N)=O)[C@@H](C)CC)C(C)C)C(C)C)C(C)C)[C@@H](C)CC has an MIC of no more than 0.062 µM (Cryptococcus neoformans; resazurin broth microdilution; 36 h, 35 °C).
